Assay results of several laboratories.
Compare with care: the assays were run in different laboratories. ± marks the error that the study gave.
APP: Amyloid-beta precursor protein (APP, Homo sapiens, UniProt P05067)
UniProt P05067, sequence (whole entry, looked up): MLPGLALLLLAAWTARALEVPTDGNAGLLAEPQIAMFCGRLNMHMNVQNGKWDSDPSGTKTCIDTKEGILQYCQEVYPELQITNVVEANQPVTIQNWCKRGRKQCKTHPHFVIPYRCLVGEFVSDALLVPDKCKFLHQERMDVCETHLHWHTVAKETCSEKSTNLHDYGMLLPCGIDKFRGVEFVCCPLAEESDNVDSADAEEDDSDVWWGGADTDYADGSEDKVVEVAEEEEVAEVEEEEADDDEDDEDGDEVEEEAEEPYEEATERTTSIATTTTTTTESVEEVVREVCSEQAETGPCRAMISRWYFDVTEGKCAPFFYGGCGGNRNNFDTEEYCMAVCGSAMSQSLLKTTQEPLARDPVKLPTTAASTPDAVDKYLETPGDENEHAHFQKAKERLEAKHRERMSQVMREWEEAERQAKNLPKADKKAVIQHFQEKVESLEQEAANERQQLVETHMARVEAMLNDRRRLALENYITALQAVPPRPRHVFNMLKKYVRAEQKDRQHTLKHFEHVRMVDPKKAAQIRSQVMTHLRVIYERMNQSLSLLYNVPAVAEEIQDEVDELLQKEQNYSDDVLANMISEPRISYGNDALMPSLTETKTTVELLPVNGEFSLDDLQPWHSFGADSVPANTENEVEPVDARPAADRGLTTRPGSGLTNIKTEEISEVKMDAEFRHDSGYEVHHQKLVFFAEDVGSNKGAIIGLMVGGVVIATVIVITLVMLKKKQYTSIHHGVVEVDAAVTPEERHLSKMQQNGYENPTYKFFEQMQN

Oc1ccc2c(c1)OC[C@]1(O)Cc3cc(O)c(O)cc3[C@H]21
decrease of ThT fluorescence (APP; fibril remodelling; 25 µM, 10 h, pH 7.4, 37 °C, with: preformed Aβ42 fibrils, equimolar): > 90%

CCC(C(=O)C=Cc1ccc(O)c(OC(F)(F)F)c1)C(=O)C=Cc1ccc(O)c(OC(F)(F)F)c1 (stereo not shown)
band density (APP; Aβ aggregation, SDS-PAGE western blot, item: Aβ1-42 75-200 kDa band; 30 µM, 24 h, 37 °C, with: Aβ1-42 10 µM; baseline: DMSO): 949 ± 147%

CC[C@@H](C)[C@@H](NC(=O)[C@@H](N)C(C)C)C(=O)N[C@H](C(=O)N[C@@H](C)C(N)=O)[C@@H](C)CC
inhibition (APP; amyloid aggregation, inhibitor, fluorescence; 2 µM, 24 h): 65.6%

CCCCCC/C=C\CCCCCCCC(=O)O
ThT fluorescence (APP; amyloid beta aggregation, inhibitor; 100 µM, 3 h, 37 °C; baseline: untreated): decreased

COc1cc(C=CC(=O)CC(=O)C=Cc2cc(C(F)(F)F)cc(C(F)(F)F)c2)ccc1O
band density (APP; Aβ aggregation, SDS-PAGE western blot, item: Aβ1-42 75-200 kDa band; 30 µM, 24 h, 37 °C, with: Aβ1-42 10 µM; baseline: DMSO): 217 ± 31%

CC1=C(/C=C/C(C)=C/C=C/C(C)=C/C=C/C=C(C)/C=C/C=C(C)/C=C/C2=C(C)C[C@@H](O)CC2(C)C)C(C)(C)C[C@H](O)C1
ThT fluorescence (APP; amyloid beta aggregation, inhibitor; 100 µM, 3 h, 37 °C; baseline: untreated): decreased

CC[C@H](C)[C@H](NC(=O)[C@@H](NC(=O)CN)C(C)C)C(=O)N[C@@H](C)C(N)=O
inhibition (APP; amyloid aggregation, inhibitor, fluorescence; 4 µM, 24 h): 64.5%

COCOc1ccc(C=CC(=O)C(CCC(=O)OC(C)(C)C)C(=O)C=Cc2ccc(OCOC)c(OC(F)(F)F)c2)cc1OC(F)(F)F (stereo not shown)
band density (APP; Aβ aggregation, SDS-PAGE western blot, item: Aβ1-42 75-200 kDa band; 30 µM, 24 h, 37 °C, with: Aβ1-42 10 µM; baseline: DMSO): 457 ± 86%

CC[C@H](C)[C@@H]1NC(=O)[C@H]([C@@H](C)O)NC(=O)[C@H](Cc2ccc(O)cc2)NC(=O)[C@H](CCCNC(=N)N)NC(=O)[C@@H]2CCCN2C(=O)[C@H]2CCCN2C(=O)[C@H]([C@@H](C)O)NC(=O)[C@H](C(C)C)NC(=O)[C@H](C(C)C)NC(=O)[C@H](CCCCN)NC(=O)[C@H](CO)NC(=O)[C@H](CCC(N)=O)NC(=O)[C@H](CO)NC(=O)[C@H](Cc2ccc(O)cc2)NC(=O)[C@H](CO)NC(=O)[C@H](Cc2ccc(O)cc2)NC(=O)[C@@H]2CCCN2C(=O)[C@H](CO)NC(=O)[C@H](CC(C)C)NC(=O)[C@H](CC(C)C)NC(=O)[C@H](C)NC(=O)[C@H](C)NC1=O
time to complete degradation (Amyloid-beta precursor protein, Aβ40 (APP, Homo sapiens, UniProt P05067); proteolysis by proteinase K, item: amyloid beta; 1.4 µM, 24 h preincubation, 37 °C, with: 20 µM amyloid beta, proteinase K 0.5 µg/mL): ≤ 50 min

CC[C@H](C)[C@H](NC(=O)[C@@H](NC(=O)[C@@H](N)C(C)C)C(C)C)C(=O)N[C@@H](CC(C)C)C(N)=O
inhibition (APP; amyloid aggregation, inhibitor, fluorescence; 4 µM, 24 h): 30%

For quick reference, copied from above:
CC[C@H](C)[C@H](NC(=O)[C@@H](NC(=O)CN)C(C)C)C(=O)N[C@@H](C)C(N)=O
inhibition (APP; amyloid aggregation, inhibitor, fluorescence; 4 µM, 24 h): 64.5%
